Measurements pooled from the literature.
Numbers after ± are the reported error.
Cell line: HEK-293T

| Compound | assay | conditions | scale | measurement | result |
| --- | --- | --- | --- | --- | --- |
| CCc1cnc(N2CCC(c3nc(COc4ccc(-n5cnnn5)cc4)cs3)CC2)nc1 | RNA-seq GSEA, item: HALLMARK_MYC_TARGETS_V1 | concentration not given | direction not given | normalized enrichment score | -2.17 |
| COc1cc(NC(=O)c2cnn(-c3ccc([N+](=O)[O-])cc3)c2C(F)(F)F)cc(OC)c1 | cell viability, MTS | 50 µM, 72 h | – | inhibition | 7.79 ± 0.81% |
| Cc1cc(C)nc(SCC(=O)Nc2ncc(Cc3cccc(OCc4cn(Cc5ccccc5C)nn4)c3)s2)n1 | cell viability, MTS | 10 µM | – | inhibition | 18.4 ± 2.9% |
| Cc1c2c(nn1C)CSCc1cc(n(C)n1)CSc1cc(c3ccccc3c1)OCCCc1c(C(=O)O)n(C)c3c-2c(Cl)ccc13 | cytotoxicity, CCK-8 | – | – | IC50 | 25 µM |
| CCCCCCCCCCCCCCCC(=O)N[C@@H](CC(=O)O)C(=O)N[C@H]1CNC(=O)[C@@H]2CCCN2C(=O)[C@H]([C@@H](C)CC)NC(=O)[C@@H]([C@@H](C)O)NC(=O)CNC(=O)[C@H](CC(=O)O)NC(=O)CNC(=O)[C@H](CC(=O)O)NC(=O)CNC(=O)[C@H]2CCCCN2C1=O | cytotoxicity, MTT | – | – | IC50 | 49 µg/mL |
| C=C1CN(S(=O)(=O)c2ccc(OC)cc2)CCCN(CC2CCCCC2)CCCN(S(=O)(=O)c2ccc(N(C)C)cc2)C1.Cl | Alamar Blue | 1 µM | – | reduction in viability | 50% |
| COc1cc(NC(=O)c2cnn(-c3ccc([N+](=O)[O-])cc3)c2C(F)(F)F)cc(OC)c1OC | cell viability, MTS | 50 µM, 72 h | – | inhibition | 10.6 ± 1.89% |
| C=C1C[C@](OC)([C@H](OCOC/C=C/B2OC(CC)(CC)C(CC)(CC)O2)C(=O)NC[C@@H]2C[C@@H](OC)C(C)(C)[C@@H](C[C@@H](COC)OC)O2)O[C@H](C)[C@@H]1C | cell viability, sulforhodamine B | 48 h, 37 °C, without H2O2 | – | IC50 | 0.405 ± 0.072 µM |
| Cc1ccc(Cn2cc(COc3cccc(Cc4cnc(NC(=O)CSc5nc(C)cc(C)n5)s4)c3)nn2)cc1 | cell viability, MTS | 10 µM | – | inhibition | 55.1 ± 8% |
| CC(C)Cc1ccc([C@@H](C)[C@@H](O)CC(C)C)cc1 (racemic) | – | 250 µM, 48 h | – | cells killed | 95% |
| O=c1[nH]nc(OCCCc2ccc(Cl)cc2)c(NCc2cccnc2)c1Br | RNA-seq GSEA, item: HALLMARK_HYPOXIA | concentration not given | direction not given | normalized enrichment score | 1.67 |
| CCCC(=O)[O-].[Na+] | – | 20 mM, 24 h, added: SAHA | – | histone lysine methacrylation | increased |

Repeated from above:
| Compound | assay | conditions | scale | measurement | result |
| --- | --- | --- | --- | --- | --- |
| CCc1cnc(N2CCC(c3nc(COc4ccc(-n5cnnn5)cc4)cs3)CC2)nc1 | RNA-seq GSEA, item: HALLMARK_MYC_TARGETS_V1 | concentration not given | direction not given | normalized enrichment score | -2.17 |
| COc1cc(NC(=O)c2cnn(-c3ccc([N+](=O)[O-])cc3)c2C(F)(F)F)cc(OC)c1 | cell viability, MTS | 50 µM, 72 h | – | inhibition | 7.79 ± 0.81% |
